{"data": "Experimental data of several laboratories", "note": "Protocols differ between the studies behind these lines. Several values in a cell are separate wells, animals, samples, runs or records. Numbers after ± are the reported error.", "sequence of UniProt P42336 (whole entry, unmodified, looked up)": "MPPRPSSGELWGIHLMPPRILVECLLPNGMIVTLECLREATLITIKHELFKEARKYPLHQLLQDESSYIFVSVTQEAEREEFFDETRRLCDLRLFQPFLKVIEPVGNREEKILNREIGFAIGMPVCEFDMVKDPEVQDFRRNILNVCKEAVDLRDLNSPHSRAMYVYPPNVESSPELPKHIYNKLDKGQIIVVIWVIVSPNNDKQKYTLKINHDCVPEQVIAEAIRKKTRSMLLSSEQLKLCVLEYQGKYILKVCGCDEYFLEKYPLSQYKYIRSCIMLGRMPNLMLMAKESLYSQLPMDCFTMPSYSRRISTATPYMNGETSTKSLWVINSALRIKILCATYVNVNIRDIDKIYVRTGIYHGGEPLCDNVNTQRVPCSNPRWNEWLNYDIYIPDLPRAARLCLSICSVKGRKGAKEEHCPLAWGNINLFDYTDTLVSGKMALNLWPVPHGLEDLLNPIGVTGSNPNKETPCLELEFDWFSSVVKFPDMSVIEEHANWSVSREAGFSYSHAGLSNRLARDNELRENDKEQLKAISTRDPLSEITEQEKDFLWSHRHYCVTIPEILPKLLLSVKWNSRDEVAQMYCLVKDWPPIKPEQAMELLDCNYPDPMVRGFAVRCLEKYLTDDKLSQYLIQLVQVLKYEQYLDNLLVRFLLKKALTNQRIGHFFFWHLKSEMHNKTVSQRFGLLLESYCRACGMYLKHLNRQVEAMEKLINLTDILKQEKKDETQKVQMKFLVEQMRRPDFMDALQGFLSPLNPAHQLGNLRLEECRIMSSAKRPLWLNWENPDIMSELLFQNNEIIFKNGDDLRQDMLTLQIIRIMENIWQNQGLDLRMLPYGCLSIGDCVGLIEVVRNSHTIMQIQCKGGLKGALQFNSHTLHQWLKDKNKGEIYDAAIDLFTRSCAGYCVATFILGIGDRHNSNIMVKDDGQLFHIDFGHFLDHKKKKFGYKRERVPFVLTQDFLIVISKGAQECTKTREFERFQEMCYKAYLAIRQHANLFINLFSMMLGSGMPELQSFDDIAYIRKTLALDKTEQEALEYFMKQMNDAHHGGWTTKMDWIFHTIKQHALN", "sequence of UniProt Q04759 (whole entry, looked up)": "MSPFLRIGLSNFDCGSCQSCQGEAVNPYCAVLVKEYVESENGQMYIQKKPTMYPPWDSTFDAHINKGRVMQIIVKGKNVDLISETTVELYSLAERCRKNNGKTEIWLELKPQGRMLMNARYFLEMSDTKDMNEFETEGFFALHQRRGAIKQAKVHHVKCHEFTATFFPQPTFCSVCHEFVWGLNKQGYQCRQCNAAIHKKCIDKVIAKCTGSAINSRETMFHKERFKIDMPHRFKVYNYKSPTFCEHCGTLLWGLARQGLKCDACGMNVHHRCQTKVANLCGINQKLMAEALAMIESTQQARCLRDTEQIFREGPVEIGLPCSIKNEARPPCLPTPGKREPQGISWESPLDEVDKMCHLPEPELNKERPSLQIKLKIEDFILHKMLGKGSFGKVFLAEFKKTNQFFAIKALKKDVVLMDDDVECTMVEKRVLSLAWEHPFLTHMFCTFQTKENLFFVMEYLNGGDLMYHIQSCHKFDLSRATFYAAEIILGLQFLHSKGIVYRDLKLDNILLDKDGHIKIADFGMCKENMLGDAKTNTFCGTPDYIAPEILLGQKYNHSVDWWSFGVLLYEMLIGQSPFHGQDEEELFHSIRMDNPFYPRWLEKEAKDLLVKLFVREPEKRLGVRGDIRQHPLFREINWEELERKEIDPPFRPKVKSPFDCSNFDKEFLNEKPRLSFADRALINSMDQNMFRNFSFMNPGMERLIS", "sequence of UniProt P15066 (whole entry, unmodified, looked up)": "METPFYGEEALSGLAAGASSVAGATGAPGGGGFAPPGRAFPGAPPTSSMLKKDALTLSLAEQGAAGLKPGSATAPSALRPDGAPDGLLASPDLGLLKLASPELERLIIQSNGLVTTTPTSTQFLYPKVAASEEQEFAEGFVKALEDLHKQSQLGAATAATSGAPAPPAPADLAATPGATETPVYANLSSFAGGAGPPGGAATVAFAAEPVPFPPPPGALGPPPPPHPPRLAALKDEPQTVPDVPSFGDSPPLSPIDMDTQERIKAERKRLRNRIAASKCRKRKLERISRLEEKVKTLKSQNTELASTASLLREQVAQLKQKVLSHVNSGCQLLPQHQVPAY", "sequence of UniProt O60706 (whole entry, looked up)": "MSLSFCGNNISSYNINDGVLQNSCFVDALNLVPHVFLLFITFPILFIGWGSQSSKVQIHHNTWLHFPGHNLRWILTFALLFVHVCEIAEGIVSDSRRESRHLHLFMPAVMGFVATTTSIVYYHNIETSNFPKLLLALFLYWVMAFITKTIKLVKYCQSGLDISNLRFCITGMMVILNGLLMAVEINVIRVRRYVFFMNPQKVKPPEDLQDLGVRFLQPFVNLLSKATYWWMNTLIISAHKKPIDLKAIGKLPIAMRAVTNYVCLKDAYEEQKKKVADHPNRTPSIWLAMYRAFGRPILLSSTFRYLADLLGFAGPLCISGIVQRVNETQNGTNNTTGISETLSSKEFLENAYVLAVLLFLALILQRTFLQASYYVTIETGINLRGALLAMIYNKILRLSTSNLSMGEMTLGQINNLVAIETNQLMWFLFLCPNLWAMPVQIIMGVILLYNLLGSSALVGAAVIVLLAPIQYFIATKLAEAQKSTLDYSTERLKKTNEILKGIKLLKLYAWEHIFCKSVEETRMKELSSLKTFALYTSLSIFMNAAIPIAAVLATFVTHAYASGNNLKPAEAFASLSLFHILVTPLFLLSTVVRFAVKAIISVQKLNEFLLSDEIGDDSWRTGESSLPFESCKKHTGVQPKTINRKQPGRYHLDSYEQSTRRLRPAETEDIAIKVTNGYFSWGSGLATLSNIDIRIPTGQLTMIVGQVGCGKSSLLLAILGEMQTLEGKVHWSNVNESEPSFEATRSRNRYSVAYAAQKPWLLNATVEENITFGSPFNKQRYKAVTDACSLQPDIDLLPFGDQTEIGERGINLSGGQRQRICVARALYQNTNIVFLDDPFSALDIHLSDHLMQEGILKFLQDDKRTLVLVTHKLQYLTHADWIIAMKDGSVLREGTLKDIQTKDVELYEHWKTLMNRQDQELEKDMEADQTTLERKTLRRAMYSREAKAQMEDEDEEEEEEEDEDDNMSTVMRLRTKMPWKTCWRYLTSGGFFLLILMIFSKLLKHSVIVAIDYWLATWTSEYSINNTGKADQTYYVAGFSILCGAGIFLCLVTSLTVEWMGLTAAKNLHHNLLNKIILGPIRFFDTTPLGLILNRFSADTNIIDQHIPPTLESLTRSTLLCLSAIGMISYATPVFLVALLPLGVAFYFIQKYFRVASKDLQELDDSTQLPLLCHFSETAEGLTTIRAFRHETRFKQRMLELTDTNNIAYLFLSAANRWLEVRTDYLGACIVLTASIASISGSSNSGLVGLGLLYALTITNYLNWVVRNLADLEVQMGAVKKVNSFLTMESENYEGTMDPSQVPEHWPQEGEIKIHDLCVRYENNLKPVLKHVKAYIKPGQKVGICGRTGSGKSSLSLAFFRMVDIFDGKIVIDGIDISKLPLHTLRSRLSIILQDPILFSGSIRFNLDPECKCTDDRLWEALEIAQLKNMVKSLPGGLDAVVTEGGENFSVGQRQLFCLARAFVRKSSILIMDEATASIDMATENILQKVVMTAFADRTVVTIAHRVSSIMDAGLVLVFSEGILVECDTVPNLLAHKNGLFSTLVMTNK", "sequence of UniProt P13346 (whole entry, unmodified, looked up)": "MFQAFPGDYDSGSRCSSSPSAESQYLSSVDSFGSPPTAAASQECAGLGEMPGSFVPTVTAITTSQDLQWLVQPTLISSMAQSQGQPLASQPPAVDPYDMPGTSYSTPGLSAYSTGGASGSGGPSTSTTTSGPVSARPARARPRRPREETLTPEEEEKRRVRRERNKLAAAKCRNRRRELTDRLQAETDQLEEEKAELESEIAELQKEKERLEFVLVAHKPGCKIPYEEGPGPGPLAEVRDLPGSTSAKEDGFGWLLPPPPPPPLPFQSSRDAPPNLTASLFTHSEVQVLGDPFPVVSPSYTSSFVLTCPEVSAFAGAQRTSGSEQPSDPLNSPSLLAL", "sequence of UniProt O60285 (whole entry, looked up)": "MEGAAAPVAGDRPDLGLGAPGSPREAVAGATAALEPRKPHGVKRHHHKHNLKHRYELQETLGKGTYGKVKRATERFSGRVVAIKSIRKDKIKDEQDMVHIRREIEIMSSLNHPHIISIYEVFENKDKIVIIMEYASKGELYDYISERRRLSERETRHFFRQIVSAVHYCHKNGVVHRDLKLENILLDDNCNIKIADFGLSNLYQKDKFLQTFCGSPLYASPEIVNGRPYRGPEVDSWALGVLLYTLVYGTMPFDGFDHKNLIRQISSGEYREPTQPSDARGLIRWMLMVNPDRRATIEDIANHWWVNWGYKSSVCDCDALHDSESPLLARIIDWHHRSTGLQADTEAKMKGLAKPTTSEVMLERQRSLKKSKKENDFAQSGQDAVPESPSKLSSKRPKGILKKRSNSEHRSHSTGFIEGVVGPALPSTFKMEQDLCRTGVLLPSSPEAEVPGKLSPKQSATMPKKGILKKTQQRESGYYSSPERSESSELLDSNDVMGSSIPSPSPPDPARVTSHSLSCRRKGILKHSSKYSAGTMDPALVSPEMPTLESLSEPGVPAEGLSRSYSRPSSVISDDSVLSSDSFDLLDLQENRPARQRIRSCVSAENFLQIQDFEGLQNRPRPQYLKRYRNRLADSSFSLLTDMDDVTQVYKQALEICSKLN", "sequence of UniProt P0A988 (whole entry, unmodified, looked up)": "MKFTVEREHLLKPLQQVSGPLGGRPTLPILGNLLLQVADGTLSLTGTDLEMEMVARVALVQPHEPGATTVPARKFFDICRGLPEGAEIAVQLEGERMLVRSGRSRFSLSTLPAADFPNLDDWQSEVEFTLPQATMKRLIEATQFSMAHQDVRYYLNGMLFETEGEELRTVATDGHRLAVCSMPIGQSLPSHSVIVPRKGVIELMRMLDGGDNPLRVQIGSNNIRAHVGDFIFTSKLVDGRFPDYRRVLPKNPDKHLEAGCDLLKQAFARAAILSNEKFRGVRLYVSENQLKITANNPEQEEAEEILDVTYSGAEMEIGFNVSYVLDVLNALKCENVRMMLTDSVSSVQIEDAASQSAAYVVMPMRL"}
{"Compound": "CCCCCCCCCCCCC/C=C/C=O", "target": "60 kDa heat shock protein, mitochondrial (Homo sapiens, UniProt P10809)", "assay": "competitive isoTOP-ABPP, item: HSPD1 cysteine peptide", "system": "proteome, soluble, MDA-MB-231", "conditions": "100 µM, added: iodoacetamide probe", "scale": "relative to: DMSO over compound-treated, higher = stronger cysteine blockade", "endpoint": "isoTOP-ABPP competition ratio", "result": 1.1}
{"Compound": "CC(=O)c1cccc(/N=N/c2cccc([B-](F)(F)F)c2)c1.[K+]", "target": "Chymotrypsinogen A (Bos taurus, UniProt P00766)", "assay": "enzyme activity, inhibitor", "conditions": "added: Suc-AAPF-AMC", "scale": "relative to: Ki cis over Ki trans", "endpoint": "switching factor", "result": "1.2 ± 0.1"}
{"Compound": "CC(C)CC(O)(CC(C)C)c1cn(C(=O)N2CCCC2)nn1", "target": "Acylamino-acid-releasing enzyme (Apeh, Mus musculus, UniProt Q8R146)", "assay": "probe labelling, inhibitor, competitive ABPP-SILAC", "system": "mouse T cells", "conditions": "concentration not given, 4 h, single peptide", "scale": "relative to: treated over DMSO cells, lower = stronger inhibition", "endpoint": "SILAC activity ratio", "result": 0}
{"Compound": "COc1ccc(C(=O)CCl)c2c1C(=O)CO2", "target": "Fosb/Jund, ΔFosB bZIP domain (Mus musculus, UniProt P13346+P15066)", "assay": "intact mass LC-MS, item: unmodified JUND bZIP", "conditions": "concentration not given", "scale": "relative to: total JUND species", "endpoint": "relative abundance", "result": "0%"}
{"Compound": "C#CCCCCOc1ccc2c(c1)CCCN2C(=O)CCl", "target": "ATP-binding cassette sub-family C member 9 (ABCC9, Homo sapiens, UniProt O60706)", "assay": "mass spectrometry profiling", "system": "H460 cell lysate", "conditions": "100 µM over 10 µM, UniProt O60706", "scale": "relative to: high over low concentration", "endpoint": "reactivity ratio", "result": 1.6}
{"Compound": "CC(C)[C@H]1NC(=O)C[C@H]2/C=C/CCSSC[C@@H](NC1=O)C(=O)N[C@H](Cc1cccc3ccccc13)C(=O)NCC(=O)O2", "target": "Tyrosine-protein kinase TXK (TXK, Homo sapiens, UniProt P42681)", "assay": "enzyme activity, inhibitor", "conditions": "10 µM", "endpoint": "inhibition", "result": "12.3%"}
{"Compound": "CN(C)[C@H]1C[C@@]23CC[C@@]4(O2)C(=CC[C@]2(C)[C@@H](c5ccc6ccncc6c5)CC[C@H]24)C=C3[C@@H](O)[C@@H]1O", "target": "NUAK family SNF1-like kinase 1 (NUAK1, Homo sapiens, UniProt O60285)", "assay": "ATP probe labelling, inhibitor, KiNativ profiling", "conditions": "1 µM", "endpoint": "inhibition", "result": "-4.7%"}
{"Compound": "CS(C)(=O)=Nc1ccc(-c2ccc(-c3nc4cc(O[C@@H]5CO[C@H]6[C@@H]5OC[C@H]6O)[nH]c4cc3F)cc2)cc1", "target": "Rhodopsin kinase GRK1 (GRK1, Homo sapiens, UniProt Q15835)", "assay": "enzyme activity, inhibitor", "conditions": "10 µM", "endpoint": "inhibition", "result": "6%"}
{"Compound": "CC(C)C[C@H](NC(=O)[C@H](CC(=O)O)NC(=O)[C@@H](NC(=O)[C@H](CCC(=O)O)NC(=O)[C@H](CCCCN)NC(=O)[C@H](Cc1ccc(O)cc1)NC(=O)[C@H](CCCCN)NC(=O)[C@H](Cc1c[nH]cn1)NC(=O)CNC(=O)CN)[C@@H](C)O)C(N)=O", "target": "HCV IRES RNA", "assay": "RNA cleavage", "system": "hepatitis C virus", "endpoint": "kcat/Km", "result": "1170 M⁻¹ s⁻¹"}
{"Compound": "[CH3][Ti+2][O]C(=O)c1ccc([S][Au][PH](c2ccccc2)(c2ccccc2)c2ccccc2)cc1.c1cc[cH-]c1.c1cc[cH-]c1", "target": "Protein kinase C theta type (PRKCQ, Homo sapiens, UniProt Q04759)", "assay": "kinase activity, HotSpot radiometric", "conditions": "1 µM, added: ATP 10 µM", "scale": "relative to: vehicle", "endpoint": "remaining activity", "result": "80.8% and 80.5%"}
{"Compound": "CC(=O)N[C@@H](CCC(N)=O)C(=O)N[C@@H](CC1CCCCC1)C(=O)N[C@@H](CNC(=O)CCl)C(=O)N[C@@H](CC(C)C)C(=O)N[C@@H](Cc1ccccc1)C(=O)O", "target": "Beta sliding clamp (Escherichia coli, UniProt P0A988)", "assay": "binding, isothermal titration calorimetry", "conditions": "37 °C", "endpoint": "ΔG", "result": "-9.03 kcal/mol"}
{"Compound": "CCN(N=Cc1cnc2ccc(Br)cn12)S(=O)(=O)c1cc([N+](=O)[O-])ccc1C", "target": "Phosphatidylinositol 4,5-bisphosphate 3-kinase catalytic subunit alpha isoform (PIK3CA, Homo sapiens, UniProt P42336, I771A)", "assay": "luminescence", "scale": "relative to: mutant over wild type", "endpoint": "IC50 fold change", "result": "5.5 and 6"}
{"Compound": "O=C1NC(=O)c2c1c1cc(F)c[n+]3c1c1c2c2cc(O)ccc2[n]1[Ru-4]312([N]=C=S)[S+]3CC[S+]1CC[S+]2CC3 (stereo not shown)", "target": "Proto-oncogene tyrosine-protein kinase Src (SRC, Homo sapiens, UniProt P12931, T341M)", "assay": "enzyme activity", "conditions": "100 nM, human enzyme, added: 10 µM ATP", "scale": "relative to: untreated", "endpoint": "remaining activity", "result": "35%"}
{"note": "Repeated from above:"}
{"Compound": "CS(C)(=O)=Nc1ccc(-c2ccc(-c3nc4cc(O[C@@H]5CO[C@H]6[C@@H]5OC[C@H]6O)[nH]c4cc3F)cc2)cc1", "target": "Rhodopsin kinase GRK1 (GRK1, Homo sapiens, UniProt Q15835)", "assay": "enzyme activity, inhibitor", "conditions": "10 µM", "endpoint": "inhibition", "result": "6%"}
